Values quoted from earlier work that unrelated publications cite.
Compare with care: the assays were run in different laboratories. ± marks the error that the study gave. In brackets after ≈: the same amount, converted by molar mass.

O=C(O)CCCC[C@@H]1SC[C@@H]2NC(=O)N[C@@H]21 gave a Cmax of < 1000 nM (plasma; concentration not given).
With Cc1nc2cccc(OCC(C)(C)C(=O)NC(C)C)c2c(N)c1C(=O)O the metabolism was ≤ 0.1% (phase I biotransformation; rat; 60 min; relative to: compound).
CC[C@@H](C)[C@@H](NC(=O)[C@@H](CCCCN)NC(=O)[C@@H](CCCCN)NC(=O)[C@@H](Cc1ccccc1)NC(=O)[C@@H](CC(C)C)NC(=O)[C@@H](CCCCN)NC(=O)[C@H](N)CCCCN)C(=O)N[C@H](CC(C)C)C(=O)N[C@@H](CCCCN)C(=O)N[C@@H](Cc1ccc(O)cc1)C(=O)N[C@@H](CC(C)C)C(N)=O gave a hemolysis of 0% (horse erythrocytes 5 % v/v; 150 µM).
For CNC(=O)c1cc(Oc2ccc(NC(=O)Nc3ccc(Cl)c(C(F)(F)F)c3)cc2)ccn1, “patients with thrombocytopenia” read 1% (patients; dose not given, grade 3).
O=C(NCCN1C(=O)C=CC1=O)c1ccc([18F])cc1 gave a tumour uptake of 30.3 ± 5.44 %ID/g (mouse, INS1 tumour, tumour; [Cys40]-exendin-4 conjugate).
CCC(=O)NS(=O)(=O)c1ccc(-c2c(-c3ccccc3)noc2C)cc1: “incidence of cardiovascular events” 2% (patients after cardiac surgery; intravenous, dose not given, up to 10 days).
CC(=O)Nc1ccc(O)cc1: “urinary microRNA levels” “increased” (rat, urine; oral, 1250 mg/kg, 24 h).
For Cn1c(=O)c2c(ncn2C)n(C)c1=O, the Cmax was 42000 nM (plasma; concentration not given).
CC[C@H](C)[C@H](NC(=O)[C@H](CCCCN)NC(=O)[C@H](CCCCN)NC(=O)[C@H](Cc1ccccc1)NC(=O)[C@H](CC(C)C)NC(=O)[C@H](CCCCN)NC(=O)[C@H](CCCCN)NS(=O)(=O)c1ccc(C)cc1)C(=O)N[C@@H](CC(C)C)C(=O)N[C@@H](CCCCN)C(=O)N[C@@H](CCCCN)C(=O)N[C@@H](CC(C)C)C(N)=O gave a hemolysis of 8 ± 1.6% (horse erythrocytes 5 % v/v; 150 µM).
The AUC(0-8 h) of NCCN[C@H]1CC[C@H](CC(=O)N[C@H]2Cc3cccc(C(=O)O)c3OB2O)CC1 is reported as 89100 ng·h/mL (human, plasma; intravenous infusion, 500 mg over 2 h every 8 h, after 10 days, without cefepime).
C[C@]12CC[C@H](OS(=O)(=O)O)CC1=CC[C@@H]1[C@@H]2CC[C@]2(C)C(c3cccnc3)=CC[C@@H]12 gave an unbound fraction of < 0.15% (human, plasma).
Under “systolic blood pressure increase”, COc1cc(Nc2ncc(F)c(Nc3ccc4c(n3)N(COP(=O)(O)O)C(=O)C(C)(C)O4)n2)cc(OC)c1OC is recorded as ~3 mmHg (rheumatoid arthritis patients; dose not given, month 1; relative to: baseline).
C[C@@H]1CCN(C(=O)CC#N)C[C@@H]1N(C)c1ncnc2[nH]ccc12 gave an oral bioavailability of ~74% (healthy human volunteers; oral, 10 mg).
CCN1C(=O)N(c2c(F)c(OC)cc(OC)c2F)Cc2cnc3[nH]c(CN4CCOCC4)cc3c21 — result for “Cmax at steady state”: 78.8 nM (patients with cancer; oral, 6 mg multiple doses, geometric mean).
Nc1ccn([C@@H]2CS[C@H](CO)O2)c(=O)n1 has a median Tmax of 2 h (Japanese HIV-infected patients; 300 mg, single dose, fasted, with: abacavir 600 mg).
O=C(N[C@@H]1CC[C@@H](c2cccc(F)c2F)CN(CC(F)(F)F)C1=O)N1CCC(n2c(=O)[nH]c3ncccc32)CC1: “incidence of ALT elevation” “increased” (item: ALT above 3-fold ULN; patients; up to 280 mg twice daily, 2 weeks or more).
For CC(C)C[C@H](NC(=O)[C@H](CO)NC(=O)[C@H](CCCNC(=N)N)NC(=O)[C@H](CC(=O)O)NC(=O)[C@H](CCC(=O)O)NC(=O)[C@H](C)NC(=O)[C@@H]1CCCN1C(=O)[C@H](C)NC(=O)[C@H](CCC(=O)O)NC(=O)[C@@H]1CCCN1C(=O)[C@@H]1CCCN1)C(N)=O, “time to neuronal uptake” read ≤ 30 min (immunohistochemistry; Fischer 344 rats, substantia nigra; direct injection).
With Cc1ccccc1-c1cc(N2CCN(C)CC2)ncc1N(C)C(=O)C(C)(C)c1cc(C(F)(F)F)cc(C(F)(F)F)c1 the CL/F was 19.7 L/h (patients, plasma; oral, dose not given, netupitant-palonosetron combination, with: cyclophosphamide 500 to 1000 mg/m^2 IV).
O=C(O)CNC(=O)c1ccccc1[131I]: “percent injected dose” 0.1 ± 0.1 %ID (normal rat, spleen; 10 min, with: co-injected 99mTc-1).
With COc1cc(/C=C/c2ccc(O)cc2)cc(OC)c1 the oral bioavailability was ~60% (rat; 2-hydroxypropyl-β-cyclodextrin solution).
With CN1C(C(=O)Nc2nccs2)=C(O)c2ccccc2S1(=O)=O the Km was 6 µM (bioactivation, substrate; human liver microsomes; Michaelis-Menten phase).
NC(=O)N1c2ccccc2C=Cc2ccccc21 has an aqueous solubility of -0.9 log mg/mL (water; hydrate).
Under “grade 3/4 thrombocytopenia incidence”, CC(C)C[C@H](NC(=O)[C@H](Cc1ccccc1)NC(=O)c1cnccn1)B(O)O is recorded as 15.4 to 29.3% (relapsed or refractory multiple myeloma patients; dose not given, single agent, phase III).
With CC[C@H](C)[C@H](N)C(=O)NCC(=O)N[C@@H](CC(C)C)C(=O)N[C@@H](CCSC)C(=O)N[C@H](C(=O)NCC(=O)NCC(=O)N[C@H](C(=O)N[C@H](C(=O)N[C@H](C(=O)N[C@@H](C)C(=O)O)[C@@H](C)CC)C(C)C)C(C)C)C(C)C the solubility was 54 ± 24 µM (≈ 55.5 µg/mL) (filtration; sodium phosphate buffer; pH 7.4).
Under “apparent oral clearance”, O=c1n(CCCN2CCN(c3cccc(Cl)c3)CC2)nc2ccccn12 is recorded as 155 ± 23 mL/min (healthy humans; oral, 50 mg (HCl salt), with: placebo).
For CC(C)(C)NC(=O)[C@@H]1C[C@@H]2CCCC[C@@H]2CN1C[C@@H](O)[C@H](Cc1ccccc1)NC(=O)[C@H](CC(N)=O)NC(=O)c1ccc2ccccc2n1, the CL/F was 989 L/h (human HIV patients; 600 mg three times daily, steady state unboosted).
With CC(C)C[C@H](NC(=O)[C@H](Cc1c[nH]c2ccccc12)NC(=O)[C@H](CCCCN)NC(=O)[C@@H](NC(=O)[C@H](Cc1ccccc1)NC(=O)[C@H](CCC(=O)O)NC(=O)[C@H](CCC(=O)O)NC(=O)[C@H](C)NC(=O)[C@H](CCCNC(=N)N)NC(=O)[C@H](C)NC(=O)C(C)(C)NC(=O)[C@H](CC(=O)O)NC(=O)[C@H](CC(C)C)NC(=O)[C@H](Cc1ccc(O)cc1)NC(=O)[C@H](CCCCN)NC(=O)[C@H](CO)NC(=O)[C@H](Cc1ccc(O)cc1)NC(=O)[C@H](CC(=O)O)NC(=O)[C@H](CO)NC(=O)[C@@H](NC(=O)[C@H](Cc1ccccc1)NC(=O)[C@@H](NC(=O)CNC(=O)[C@H](CCC(N)=O)NC(=O)[C@H](CO)NC(=O)[C@@H](N)Cc1c[nH]cn1)[C@@H](C)O)[C@@H](C)O)C(C)C)C(=O)N[C@@H](CCC(=O)O)C(=O)N[C@@H](CO)C(=O)N[C@H](C(=O)O)[C@@H](C)O the in-use stability was ≥ 7 days (aqueous solution; body temperature).
Cc1cc(C)c2c(c1)[C@@H](N(Cc1cc(C(F)(F)F)cc(C(F)(F)F)c1)c1nnn(C)n1)CCCN2C[C@H]1CC[C@H](C(=O)O)CC1 — result for tolerability: “not toxic” (healthy volunteers; up to 600 mg, multiple dose).
C/C=C1\NC(=O)[C@H]2CSSCC/C=C/[C@H](CC(=O)N[C@H](C(C)C)C(=O)N2)OC(=O)[C@H](C(C)C)NC1=O: “grade 3-4 nausea or vomiting incidence” < 5% (cutaneous T-cell lymphoma patients; 14 mg/m^2, antiemetic prophylaxis).
Cc1[nH]c2ccccc2c1CCNCc1ccc(/C=C/C(=O)NO)cc1 — result for “decrease in Cmax”: 45% (human; dose not given, high-fat meal; relative to: fasted).
The total clearance of CC[C@H](C)CCCCC(=O)N[C@@H](CCN)C(=O)N[C@H](C(=O)N[C@@H](CCN)C(=O)N[C@H]1CCNC(=O)[C@H]([C@@H](C)O)NC(=O)[C@H](CCN)NC(=O)[C@H](CCN)NC(=O)[C@H](CC(C)C)NC(=O)[C@@H](Cc2ccccc2)NC(=O)[C@H](CCN)NC1=O)[C@@H](C)O is reported as 2.19 L/h (population PK model; patients, normal renal function; intravenous).
With C#Cc1cccc(Nc2ncnc3cc(OCCOC)c(OCCOC)cc23)c1 the Cmax was 13800 nM (plasma; concentration not given).
With CN1CCN(c2ccc3nc(-c4c(N)c5c(F)cccc5[nH]c4=O)[nH]c3c2)CC1 the AUC(0-t) was 2200 to 8250 ng·h/mL (human; oral, 500 mg, 5 days on 2 days off, day 1, 24 h).
O=C(CNc1nc(NCC(=O)NO)nc(-c2ccccc2)n1)NO has a pKa of 8 to 10 (acid side arm).
CC[C@H]1OC(=O)[C@H](C)[C@@H](O[C@H]2C[C@@](C)(OC)[C@@H](O)[C@H](C)O2)[C@H](C)[C@@H](O[C@@H]2O[C@H](C)C[C@H](N(C)C)[C@H]2O)[C@](C)(O)C[C@@H](C)CN(C)[C@H](C)[C@@H](O)[C@]1(C)O — result for “maximum whole-body concentration”: 1.7 ng/g (juvenile Chinook salmon, whole body wet weight; concentration not given, field-collected).
C[C@@H]1CCN(C(=O)CC#N)C[C@@H]1N(C)c1ncnc2[nH]ccc12 gave an AUC increase of 72.6% (hepatic impairment patients; oral, 10 mg; relative to: healthy subjects).
CN[C@@H]1[C@H](O)[C@H](NC)[C@H]2O[C@@]3(O)C(=O)C[C@@H](C)O[C@H]3O[C@@H]2[C@H]1O gave a Cmax of 323000 nM (plasma; concentration not given).
CC[C@@H]1C(=O)N(C)c2cnc(Nc3ccc(C(=O)NC4CCN(C)CC4)cc3OC)nc2N1C1CCCC1 — result for “volume of distribution”: 1000 L (human patients; dose not given).
The unbound concentration of CN(C)C(=O)c1cc2cnc(Nc3ccc(N4CCNCC4)cn3)nc2n1C1CCCC1 is reported as 0.46 ± 0.24 nmol/g (recurrent brain tumour patients, MRI-non-enhancing tumour; 900 mg/day, 5 days).
C[C@H]1CO[C@@H]2Cn3cc(C(=O)NCc4ccc(F)cc4F)c(=O)c(O)c3C(=O)N12: pharmacokinetics “no effect” (drug interaction; human; with: etravirine).
With O=C1c2cccc3c2[C@H](CCC3)CN1[C@@H]1CN2CCC1CC2 the Tmax was 5.5 h (healthy volunteers, plasma; oral, 0.75 mg, single dose, given alone).
O=C(O)c1cc(O)c(O)c(O)c1 gave a Cmax of 2000 nM (plasma; concentration not given).
With CN1C(C(=O)Nc2ccccn2)=C(O)c2ccccc2S1(=O)=O the aqueous solubility was 10 µg/mL (≈ 30.2 µM) (water; hydrate form).
With Nc1c(Br)cc(Br)cc1CN[C@H]1CC[C@H](O)CC1 the Cmax was 480 nM (plasma; concentration not given).
For Cc1cc2c(cc1Cl)nc1c(=O)[nH]c(=O)nc-1n2C[C@H](O)[C@H](O)[C@H](O)COP(=O)(O)O, the pKa was 3.42.
Clc1ccc(C(Cn2ccnc2)OCc2ccsc2Cl)c(Cl)c1 (centres unmarked) has a logP of 4.4.
CO[C@@H]1[C@@H](OC(N)=O)[C@@H](O)[C@H](Oc2ccc3c(O)c(NC(=O)c4ccc(O)c(CC=C(C)C)c4)c(=O)oc3c2C)OC1(C)C has a Cmax of 1000 nM (plasma; concentration not given).
C[C@@H]1CCO[C@H]2Cn3cc(C(=O)NCc4ccc(F)cc4F)c(=O)c(O)c3C(=O)N12 — result for “trough concentration ratio”: ~1.7 fold (Japanese HIV patients; dose not given; relative to: UGT1A1*6 homozygous over wild type).
For Nc1nc2c(ncn2[C@H]2C[C@@H]3OP(=O)(O)OC[C@H]3O2)c(=O)[nH]1, the log Kw was 0.66 (methanol/water).
The Cmax of C1CCC(C(CC2CCCCN2)C2CCCCC2)CC1 (centres unmarked) is reported as 280 nM (plasma; concentration not given).

A few entries again:
NC(=O)N1c2ccccc2C=Cc2ccccc21 has an aqueous solubility of -0.9 log mg/mL (water; hydrate).
CCC(=O)NS(=O)(=O)c1ccc(-c2c(-c3ccccc3)noc2C)cc1: “incidence of cardiovascular events” 2% (patients after cardiac surgery; intravenous, dose not given, up to 10 days).
CN[C@@H]1[C@H](O)[C@H](NC)[C@H]2O[C@@]3(O)C(=O)C[C@@H](C)O[C@H]3O[C@@H]2[C@H]1O gave a Cmax of 323000 nM (plasma; concentration not given).
